Assay results collected from several papers.
Each line is one published result; not all experiments were run side by side. Numbers after ± are the reported error.

For `C[C@@H]1Cc2c(Cl)cc(C(=O)N[C@H](Cc3ccccc3)C(=O)O)c(O)c2C(=O)O1`, “body weight to egg weight ratio” read 72.3 ± 4 (chicken embryo; in ovo injection, 0.25 µg/egg).
`CC(C)(C)[C@H](NC(=O)C(F)(F)F)C(=O)N1C[C@H]2[C@@H]([C@H]1C(=O)N[C@H](C#N)C[C@@H]1CCNC1=O)C2(C)C` — result for “participants discontinued due to adverse events”: 0% (human, fasted; oral, 1500 mg single dose, 28 days, no ritonavir).
With `C[C@@H]1C[C@H]2[C@@H]3CCC4=CC(=O)C=C[C@]4(C)[C@@]3(F)[C@@H](O)C[C@]2(C)[C@@]1(O)C(=O)CO` the Cmax was 660 nM (human, plasma; 20 mg).
For `C[C@@H]1COCCN1c1cc(C2([S@](C)(=N)=O)CC2)nc(-c2cc[nH]c3nccc2-3)n1`, the COVID-19 incidence was 16.7% (Japanese advanced solid tumour patients; oral, 160 mg twice daily, any grade).
The unbound fraction of `CC(C)(C)[C@H](NC(=O)C(F)(F)F)C(=O)N1C[C@H]2[C@@H]([C@H]1C(=O)N[C@H](C#N)C[C@@H]1CCNC1=O)C2(C)C` is reported as 0.824 (human liver microsomes; protein 1 mg/mL).
For `Cc1ncc2n1-c1ccc(Cl)cc1C(c1ccccc1F)=NC2`, the Cmax was 20.9 ng/mL (healthy male humans, plasma; oral, dose not given, phase I DDI study, added: vericiguat).
For `Cc1cn([C@H]2O[C@@H](CO[P@@](=O)(N[C@@H](C)C(=O)OC(C)C)Oc3ccccc3)[C@H](O)[C@H]2F)c(=O)[nH]c1=O`, “patients with TEAE” read 17% (item: COVID-19 infection; human; 50 mg).
For `C[C@H]1CN(C(=O)CC#N)[C@]12CCN(c1ncnc3[nH]ccc13)C2`, “subjects with positive SARS-CoV-2 test” read 0% (healthy human; oral, 6 mg single).
Under “COVID-19 pneumonia incidence”, `Cc1cc(C)c(CNC(=O)c2cc(Cl)c3c(c2C)O[C@@](C)([C@H]2CC[C@H](N(C)C)CC2)O3)c(=O)[nH]1` is recorded as 0% (human, relapsed/refractory NHL; concentration not given, all TEAEs, grade 4).
`O=C[C@H](C[C@@H]1CCNC1=O)NC(=O)[C@H](CC1CCCCC1)NC(=O)c1cc2ccccc2[nH]1` has an AUC of 3.18 µg·h/mL (rats, plasma; intravenous, 4 mg/kg).
For `Cc1cc(C)c(CNC(=O)c2cc(Cl)c3c(c2C)O[C@@](C)([C@H]2CC[C@H](N(C)C)CC2)O3)c(=O)[nH]1`, “patients with TEAE” read 0% (item: COVID-19; human patients; oral, 200 mg once daily, 1 day onset day 14).
The remaining compound of `CC(C)C(=O)OC[C@H]1O[C@@H](n2ccc(NO)nc2=O)[C@H](O)[C@@H]1O` is reported as 0% (rat plasma; 100 µM, 0.5 h, no CES inhibitor).
`Cn1cnc(Cn2c(=O)[nH]/c(=N\c3cc4cn(C)nc4cc3Cl)n(Cc3cc(F)c(F)cc3F)c2=O)n1` gave an AUC(0-tau) of 997 µg·h/mL (healthy Japanese adults, plasma; oral, 250 mg, day 5, fasted, with prednisolone).
`Cn1cnc(Cn2c(=O)[nH]/c(=N\c3cc4cn(C)nc4cc3Cl)n(Cc3cc(F)c(F)cc3F)c2=O)n1` gave a Cmax of 15500 ng/mL (human, normal renal function; oral, 375 mg, single dose, geometric mean).

Excerpt of the above:
For `C[C@H]1CN(C(=O)CC#N)[C@]12CCN(c1ncnc3[nH]ccc13)C2`, “subjects with positive SARS-CoV-2 test” read 0% (healthy human; oral, 6 mg single).
